Experimental data gathered from unrelated publications.
Lines come from different studies, so protocols differ. Values joined by “and” are separate records of one study, mostly repeats; a detail may differ.
Target: Serine/threonine-protein kinase MRCK beta (CDC42BPB, Homo sapiens, UniProt Q9Y5S2)

Compound | assay | setting | how to read | quantity | value
Cc1nc2c(F)cc(-c3nc(Nc4ccc(CNC(=O)CCCCCCC(=O)NO)cc4)ncc3F)cc2n1C(C)C | enzyme activity, inhibitor | 1 µM | – | inhibition | 66%
O=C(Cc1ccc(OCc2ccccc2)cc1)NC1(C(=O)O)CCN(C(=O)c2ccc(-c3cccc(Cl)c3)cc2)CC1 | enzyme activity, inhibitor | 10 µM | – | activity vs control | 107%
NC(=O)C[C@H]1CCc2sc3ncnc(O[C@H]4CC[C@H](N5CCOCC5)CC4)c3c21 | enzyme activity, inhibitor | 10 µM | – | inhibition | -1%
COc1cc(Nc2nccc(-c3cnn4nc(OC)ccc34)n2)cc(C(F)(F)F)c1 | binding, competition with immobilised ligand | 1 µM | – | remaining binding | 88%
O=C=[N][Ru-4]123([n]4c5ccc(O)cc5c5c6c(c7cc(F)c[n+]1c7c54)C(=O)NC6=O)[S+]1CC[S+]2CC[S+]3CC1 (stereo not shown) | enzyme activity | 100 nM, human enzyme, added: 10 µM ATP | baseline: untreated | remaining activity | 105%
C=CC(=O)Nc1cccc(-c2cnc3[nH]cc(C(=O)NC(C)(C)C)c3n2)c1 | kinase activity | 0.1 µM | – | inhibition | 11% and 14%
CN1CCN(Cc2ccc(-c3ccc(CO[C@H]4CCC[C@@H]4NC(=O)c4cc(-c5cnn(C)c5)cnc4N)cc3)cc2)CC1 | enzyme activity, inhibitor | 0.1 µM | – | inhibition | 0%
COc1ccc(NC(=O)Nc2ccc3c(c2)C(=O)N(C(C)CO)CC(C)C(CN(C)Cc2ccc4c(c2)OCO4)O3)cc1 (stereo not shown) | kinase activity, KinaseProfiler | 0.03 µM, species human | baseline: control | remaining activity | 96%
Cc1cccc(O[C@H]2CCC[C@@H](C(C)CNCc3ccncc3)C2)c1 (relative stereo) | enzyme activity, inhibitor | 10 µM | – | inhibition | -1%
C=CC(=O)N1Cc2nc(-c3cc(-c4cc(Cl)cnc4Cl)c(F)cc3F)n(-c3ccncn3)c2C1 | cell-free assay, inhibitor | 1 µM | – | inhibition | 6.7%
CCn1cc(C(=O)O)c(=O)c2c(N)c(F)c(NC3CCCCC3)cc21 | kinase activity | 0.1 µM, added: ATP at Km | – | inhibition | 10%
CC(C)=CC1OC(C)(C)C2C=C3C(=O)C(Cl)=CC(O)C3C3C(O)C4OC4C(=O)C132 (stereo not shown) | cell-free assay, competition with immobilised ligand | 10 µM | – | remaining binding | 100%
COc1c(OCCCN2CCOCC2)ccc2c1N=C(NC(=O)c1cnc(N)nc1)N1CCN=C21 | kinase activity, inhibitor | 1 µM | baseline: untreated control | remaining activity | 95%
Cc1cnc2nc1Nc1cccc(c1)COC/C=C/COCc1cc(ccc1OCCN1CCOCC1)N2 | binding, competition with immobilised ligand | 0.1 µM | – | remaining binding | 100%
C=CC(=O)N1CCc2ccc(-n3c(=O)ccc4cnc5ccc(-c6cnn(C)c6)cc5c43)cc21 | KINOMEscan | 1 µM | baseline: DMSO control | remaining binding | 96%
COc1ccc(O)cc1-c1c[nH]c2ncc(-c3cncc(C(=O)N(C)C)c3)cc12 | binding, competition with immobilised ligand | 0.2 µM | – | inhibition | 19.4%

Some of these lines once more:
Compound | assay | setting | how to read | quantity | value
CC(C)=CC1OC(C)(C)C2C=C3C(=O)C(Cl)=CC(O)C3C3C(O)C4OC4C(=O)C132 (stereo not shown) | cell-free assay, competition with immobilised ligand | 10 µM | – | remaining binding | 100%
